Measured values from different studies.
Lines come from different studies, so protocols differ. Values joined by “and” are separate records of one study, mostly repeats; a detail may differ. ± gives the spread as reported.
Target: Casein kinase I isoform alpha (CSNK1A1, Homo sapiens, UniProt P48729)
Sequence of UniProt P48729 (whole entry, looked up): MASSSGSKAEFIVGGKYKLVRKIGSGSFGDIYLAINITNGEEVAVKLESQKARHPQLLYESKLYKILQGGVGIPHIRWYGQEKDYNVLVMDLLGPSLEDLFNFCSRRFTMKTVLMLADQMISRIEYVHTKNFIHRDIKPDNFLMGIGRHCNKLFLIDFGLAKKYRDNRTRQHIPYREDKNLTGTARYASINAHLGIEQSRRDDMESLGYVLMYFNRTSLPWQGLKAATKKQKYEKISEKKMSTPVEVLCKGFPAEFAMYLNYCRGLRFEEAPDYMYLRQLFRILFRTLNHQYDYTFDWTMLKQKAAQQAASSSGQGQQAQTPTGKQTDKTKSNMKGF

Cn1cc(-c2ccnc3ccccc23)c(-c2ccccn2)n1  selectivity ratio (enzyme activity, ADP-Glo; reference: IC50 over Yck2 IC50): 3
Fc1ccc(-c2nn3cc(F)ccc3c2-c2ccncc2)cc1  remaining activity (kinase activity, inhibitor, ADP-Glo; 0.273 µM, 0.5 h): 67.7% and 62.8%
CC#CC(=O)N1CCC[C@H]1c1nc(-c2ccc(C(=O)Nc3ccccn3)cc2)c2c(N)nccn12  remaining activity (kinase activity, inhibitor, HotSpot radiometric; 100 nM, with: ATP 10 µM): 102 ± 2.3%
c1coc(-c2n[nH]cc2-c2ccnc3ccccc23)c1  selectivity ratio (enzyme activity, ADP-Glo; reference: IC50 over Yck2 IC50): 5
C=CC(=O)N1CCC([C@@H]2CCNc3c(C(N)=O)c(-c4ccc(Oc5ccccc5)cc4)nn32)CC1  remaining activity (kinase activity, inhibitor, HotSpot radiometric; 100 nM, with: ATP 10 µM): 106%
c1ccc(Cn2cc(-c3ccnc4ccccc34)c(-c3ccccn3)n2)cc1  selectivity ratio (enzyme activity, ADP-Glo; reference: IC50 over Yck2 IC50): 6
COc1ccc(F)cc1C(=O)NCc1ccc(-c2nn([C@@H](C)C(F)(F)F)c(N)c2C(N)=O)cc1  remaining activity (kinase activity, inhibitor, HotSpot radiometric; 1000 nM, with: ATP at Km): 98.8 ± 4.1%
CC[C@@H]1[C@H](F)C(=O)N[C@@H]1COc1nccc2cc(C(N)=O)c(OC)cc12  inhibition (ATP probe binding, KiNativ profiling, measured: Lys2 probe site; THP-1 cell lysate; 0.01 mM): 2.1%
Fc1ccc(-c2nc3cc(F)ccn3c2-c2ccncc2)cc1  remaining activity (kinase activity, inhibitor, ADP-Glo; 0.574 µM, 0.5 h): 19.6% and 36.6%
C=CC(=O)N1CCC(COCC(=O)N2CCN(c3nc(-c4cnc(N)nc4C(F)F)nc(N4CCOC[C@@H]4C)n3)CC2)CC1  remaining binding (KINOMEscan; 1 µM): 97%

Excerpt of the above:
CC[C@@H]1[C@H](F)C(=O)N[C@@H]1COc1nccc2cc(C(N)=O)c(OC)cc12  inhibition (ATP probe binding, KiNativ profiling, measured: Lys2 probe site; THP-1 cell lysate; 0.01 mM): 2.1%
Fc1ccc(-c2nc3cc(F)ccn3c2-c2ccncc2)cc1  remaining activity (kinase activity, inhibitor, ADP-Glo; 0.574 µM, 0.5 h): 19.6% and 36.6%
